# Results gathered from unrelated publications.
# Parts stem from different laboratories: compare values within a part only. Changes are numbered by the printed parent chain.

# Study 1 — technique: DHFR PCA, deep sequencing; medium: yeast; together with: (+)-ABA 17 µM; baseline: wild-type fitted maximum; reading: higher = stronger binding
# Target: ABI1, truncated, D143A, DHFR fusion (Arabidopsis thaliana)
# Setting: methotrexate growth selection, single substitutions
# Parent: PYL1, truncated, DHFR fusion (Arabidopsis thaliana); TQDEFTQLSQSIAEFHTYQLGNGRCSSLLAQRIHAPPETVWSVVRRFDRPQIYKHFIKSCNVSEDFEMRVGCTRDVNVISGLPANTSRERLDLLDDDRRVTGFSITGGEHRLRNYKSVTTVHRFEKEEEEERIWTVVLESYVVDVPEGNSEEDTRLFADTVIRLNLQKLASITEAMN
Variant,relative binding score [%]
S26Y,68.3
E64Y,66
A158H,18.8
E125S,87.9
D159N,81.6
E64S,84.6
V145A,28.1
L112Q,-6.6
T86W,93.9
D159Y,-1.29
D92P,-7.75
H34E,80.9
F66R,63.5
T6N,80
L28F,62.5
L94H,75.7
S27Y,15.2

# Study 2 — target: CREB3L4, bZIP domain (human); technique: DHFR protein complementation; medium: yeast; baseline: wild-type JUN-FOS pair; reading: higher = stronger binding
# Setting: single substitutions, most at no-binding floor
# Parent: JUN, bZIP domain (human); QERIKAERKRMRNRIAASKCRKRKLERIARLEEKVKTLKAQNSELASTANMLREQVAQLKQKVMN; partner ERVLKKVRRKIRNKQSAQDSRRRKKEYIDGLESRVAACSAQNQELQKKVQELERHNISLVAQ
Variant,binding fitness [natural log]
E44H,-1.42
E44V,-1.51
L45D,-1.42
S47P,-1.56
L45P,-1.56
A49L,-1.47
E54C,-1.56
A40Y,-1.35
K39P,-1.48
R53V,-1.57
L52I,-1.48
N42Y,-1.42
L31T,-1.56
E33L,-1.42
A29D,-1.36
A49E,-1.34
K34W,-1.56
A46I,-1.4
V56S,-1.41
I28D,-1.51
T37A,-1.4
Q55F,-1.36
S43C,-1.36
V56E,-1.47
A57M,-1.6

# Study 3 — technique: RNA Bind-n-Seq; molecule type: RNA; medium: in vitro; concentration: not given; baseline: input RNA pool; reading: higher = stronger binding
# Target: RING finger protein unkempt homolog, zinc fingers 1-6, GST-SBP tag (UNK, Homo sapiens, UniProt Q9C0B0, residues 30-357)
# UniProt Q9C0B0, sequence (30-357, looked up): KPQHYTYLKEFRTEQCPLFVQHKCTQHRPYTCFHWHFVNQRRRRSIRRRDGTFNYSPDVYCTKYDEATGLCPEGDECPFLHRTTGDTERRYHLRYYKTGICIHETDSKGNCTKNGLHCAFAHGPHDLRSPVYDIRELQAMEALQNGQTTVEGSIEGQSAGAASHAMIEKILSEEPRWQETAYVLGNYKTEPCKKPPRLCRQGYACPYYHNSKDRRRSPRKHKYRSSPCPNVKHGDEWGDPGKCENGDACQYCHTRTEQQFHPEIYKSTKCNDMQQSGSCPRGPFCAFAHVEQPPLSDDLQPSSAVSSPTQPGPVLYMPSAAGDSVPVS
# Setting: RNA with constant flanks, human-mouse chimeric sites, ends assumed
# Constant ends, left off below: GGGAGUUCUACAGUCCGACGAUC … CAACAGAGGAUUGAGCAUCA
Oligonucleotide,bound/input enrichment [ratio]
CUGAGGAUACCACUGAAGAGACCUUAAAAGAAUCAUUUUGACGGCUCGUUCGUGCAAGAAUAGUCACUGAUCGGGAAAACUGGGUCCCCAAAGGGUUUGGUUUUGUAGACUUUAAUAGUG,0.747
CAGUCCCCGUGUCCCAGUGCAGGACGAGAACAUGGACAACUCAAAGCGGACCCUCUAUUGUAGUUCUUGAUUCUCGAAAUGUGCUAUUAUUGUUUGUAAAAAAGGAAUUUUUUUUAAAGA,0.159
CAGCUGCAGACAGAAAAGGAUGAGAAGGAGCUGUAUAAGGUACAUUUGAAGAAUACAGAAAUAGAAAAUACGAAGCUUGUGUCAGAGGUCCAGACUUUAAAGAAUUUAGAUGGGAACAAA,2.9
UUUCUACUGCAGCAGACGAUGCUAAGAGUGAAGGAUCCUAAGAAGUCCCUGGAUUUUUAUACGAGGGUUCUUGGACUGACCCUCCUGCAGAAGCUUGACUUCCCUGCUAUGAAGUUCUCG,0.138
AUAAAGGCUAUGUUGAGUGGUCCAGGUCAGUUUGCUGAGAAUGAAACCAAUGAGGUCAAUUUUAGAGAGAUACCUUCACAUGUGCUAUCAAAAGUGUGCAUGUAUUUUACCUACAAGGUC,0.114
UUGCUACUAACUCCAUGGGUCAAGUUCCUGUGGGAAUCUUACAGGCAGUGUUUGGACCUUCUUCGAAACAAUUCUAGAGUAGAGCGCCUUUACCAUGAUAUCGCCCAACAAGCUUUCAAA,0.194
GGAAGUACAAUGAUGGAAAUAGAUGGCGACAAAGGCAAGCAGGGCGGGCCCACCUACUACAUAGACACCAAUGCCCUCCGCGUGCCCAGGGAGAACAUGGAGGCCAUUUCACCUCUAAAG,0.405
UUCCCAACCUCCCGCCUGCUUUUUGAACCGCUUUUUGGAAAGUUUUUGGCGUUUCUUUUCCUUCCCCAUACAAAGUGAUUACAGUUUCCCCCGCAAGGGUCUAUCGAAGGGCUUGACGGA,0.465
AAAUCGUGUGUGUCCAAUAUUGAAAGUGCUUUAUCUACACUCCAGUAUGUAAGCAGCAUAGUAGUUUCUUUAGAGAAUAGGUCAGCCAUUGUAAAGUACAAUGCAAGCUCAGUCACUCCA,34.3
UCUGGUCACACUCGUGUGUAUGGUGUUUGCUUUGUUGACACUUCACUGGGCAAGUUUUUCAUCGGCCAGUUUUCAGAUGACCGCCACUGUUCCAGAUUUAGGACGCUAGUGGCUCACUAU,0.242
AUAAAGGCUAUGUUGAGUGGUCCAGGUCAGUUUGCUGAGAACGAAACCAAUGAGGUCAAUUUUAGAGAGAUCCCCUCACAUGUGCUAUCAAAAGUGUGCAUGUAUUUUACCUACAAGGUC,0.105

# Study 4 — technique: universal PBM; molecule type: double-stranded DNA, one strand shown; medium: in vitro; concentration: 600 nM; reading: higher = stronger binding
# Target: Sal-like protein 4, full length isoform A (SALL4, Homo sapiens, UniProt Q9UJQ4, residues 1-1053)
# UniProt Q9UJQ4, sequence (whole entry, looked up): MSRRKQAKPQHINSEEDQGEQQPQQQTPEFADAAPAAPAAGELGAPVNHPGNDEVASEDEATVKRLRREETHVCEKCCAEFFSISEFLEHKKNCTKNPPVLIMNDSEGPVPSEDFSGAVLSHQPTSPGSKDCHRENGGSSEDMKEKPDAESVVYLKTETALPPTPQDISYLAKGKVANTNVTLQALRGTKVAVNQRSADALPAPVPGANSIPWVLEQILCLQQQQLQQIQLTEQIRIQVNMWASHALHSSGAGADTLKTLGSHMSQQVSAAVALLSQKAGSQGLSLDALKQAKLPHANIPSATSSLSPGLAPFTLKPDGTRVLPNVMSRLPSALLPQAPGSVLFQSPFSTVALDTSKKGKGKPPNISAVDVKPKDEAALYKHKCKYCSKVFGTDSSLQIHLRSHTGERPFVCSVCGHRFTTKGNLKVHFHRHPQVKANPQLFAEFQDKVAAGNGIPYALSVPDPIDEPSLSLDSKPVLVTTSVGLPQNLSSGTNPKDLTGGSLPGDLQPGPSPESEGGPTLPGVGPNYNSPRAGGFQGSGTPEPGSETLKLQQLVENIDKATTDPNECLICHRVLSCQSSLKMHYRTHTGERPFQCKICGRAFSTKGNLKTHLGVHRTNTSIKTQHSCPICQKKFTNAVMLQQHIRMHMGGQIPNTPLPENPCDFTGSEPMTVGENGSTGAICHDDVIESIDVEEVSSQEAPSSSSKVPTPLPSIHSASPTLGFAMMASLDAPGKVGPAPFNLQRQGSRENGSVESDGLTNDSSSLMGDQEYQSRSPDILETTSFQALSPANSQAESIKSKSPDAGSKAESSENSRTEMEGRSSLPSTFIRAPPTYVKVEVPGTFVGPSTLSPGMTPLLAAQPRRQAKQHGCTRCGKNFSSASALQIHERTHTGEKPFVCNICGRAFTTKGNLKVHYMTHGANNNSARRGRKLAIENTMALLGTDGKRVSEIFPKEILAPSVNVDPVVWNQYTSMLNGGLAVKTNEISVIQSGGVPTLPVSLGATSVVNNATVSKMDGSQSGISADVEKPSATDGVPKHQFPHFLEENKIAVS
# Setting: 8-mer, flanks averaged, mean of replicates
Oligonucleotide,E-score
ATTACCCA,0.0861
CCATCCGC,-0.168
GAACGTTA,0.0719
ACAGGCGG,-0.244
GGCCCACC,-0.358
GGTTTCAC,-0.0291
CACTACTC,-0.027
ACATACAC,0.157
AAAAAAGC,0.198
CGGGCACC,-0.254
CCCCCATC,-0.177
AGATAAAA,0.253
GTAGACGA,0.0122
CTGCCCTC,-0.288
CTATTTCA,0.208
AAAGATAG,0.201

# Study 5 — target: CCND1, cyclin fold, Cln2 fusion (human); technique: yeast growth competition, sequencing; medium: yeast; setting: weak parent motif; baseline: not given; reading: higher = stronger binding
# Parent: CDC25A docking peptide (human); PPHRRRLLFACSP; partner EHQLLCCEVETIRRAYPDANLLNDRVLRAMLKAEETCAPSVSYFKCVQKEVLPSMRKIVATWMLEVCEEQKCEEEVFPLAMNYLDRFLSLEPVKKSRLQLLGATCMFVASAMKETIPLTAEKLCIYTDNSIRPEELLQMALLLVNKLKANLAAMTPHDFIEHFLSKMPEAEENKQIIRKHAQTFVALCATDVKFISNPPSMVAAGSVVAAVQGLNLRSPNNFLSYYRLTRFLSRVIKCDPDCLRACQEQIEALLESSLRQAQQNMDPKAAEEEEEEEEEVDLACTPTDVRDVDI
Variant,normalised enrichment score
R6P,0.961
P1K,0.763
R6M,0.754
H3C,0.318
L7E,-0.122
S12M,0.338
C11M,0.0776
C11I,0.558
P2Y,0.215
P1R,0.284
C11N,-0.448
F9I,-0.12
F9S,0.389
P13C,0.539
L7P,-0.216
R6G,-0.277
P2K,0.214
H3P,-0.242
A10R,0.391
R4C,0.401
F9L,0.045
R4K,-0.245
F9K,0.232

# Study 6 — technique: RNA Bind-n-Seq; molecule type: RNA; medium: in vitro; concentration: 365 nM; baseline: no-protein control; reading: higher = stronger binding
# Target: RNA binding protein fox-1 homolog 2, RRM domain, GST-SBP tag (RBFOX2, Homo sapiens, UniProt O43251-10, residues 100-194)
# Setting: natural RNA segment, single round, ends assumed
# Constant ends, left off below: GGGAGUUCUACAGUCCGACGAUC … UGGAAUUCUCGGGUGCCAA
# Residues (chain): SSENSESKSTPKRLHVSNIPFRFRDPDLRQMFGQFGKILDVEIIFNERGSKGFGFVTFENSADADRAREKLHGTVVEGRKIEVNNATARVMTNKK
Oligonucleotide,RBNS enrichment (R)
CUUGUAGGGAAGGGACAAGCUGCAGAGGAACAGUGAUUUAAAGGCCCUUGGAGCUAGUCCCCUCAGCCUCAACUUUGAUCUGGCCUUUAGCCUCAAAGCUGCUGUACCUG,0.303
CCUAAUAUGAUAUAUUAUUUUGUAGUAUCUCAGACUUUGUAAAUAAAUGCCAUUAUUUUUAUAUGGAAAUUUUAUAGAAGAGCUAUUUCUGUAUACGUAAUUACUCCUGA,0.628
AGACCCCACGCCCCUCACUGAGCUCCCAGUUCAGAGGAAAGCCAGACAAUUAAACAGCAGUUACAAUAUGUGUGUGGCUUCUGUCUACUCAAGUUUCCUCUCAGGUCCUC,0.368
CCUGCCCACAGGGCCACCUGUUGGUUUGAGAGCGUGUUCGUGUUCUCUUGCCCUCCCUGCCUAAGAGCUACUGGGAUCACGUUAGCGGGCAUUUAGGCUUUGAUGAGAGG,0.304
UUCCCUGCCCCACCCCCUGGCCGCAGCAGGCCAGCACUGCAGAGUUUGGGUGCUGGUGGUGUGGCUGUAGGGGAGGGGAGACCACACCCAAGGUGGGGGCUGUGGCCAUG,0.895
ACAGACUCUUAAACUAACAAUUCAAGCAGGCGCCAAGUGCUAUGACAGAGGUGUGAAUAAAAGCAUCAGGAAAUCGGAUGGAGAACCACCAUUCACCCAAGGGUCAGAGG,0.344
UUGGGCAUUUUUAAGAGGUCUGAAUUUGUAUUUUUCUUCAUUUUUGAAACUUUACAUUUGUUGACUUUUUUUCAUUCUCAUUUAAAAUAUAUUGUGCUAUGAUAACCAAC,0.578
UUUUCCCCAAACACUUUGCCAGCCACUGGUGGUCCCUGCUUUUCUGAGUACCAUGUUUCCAGGAGGGGCCAUGGGGGUCAGGGUGGUUUUGAGAGAGCAGGGUAAGGAAG,0.535
CACUAACUGGUAAGGCUUAUUGUACAGUAUAUUGUCAGUAUUCUUCUGGUUCAGCAUACCUUAUAGUUCAUAUAUAACCUGUAUUAAUUGUAUAGAUUGUGCAUUAAAAG,0.317
CCCGAUGCUCUCCGCCGUGUUCGUGUCCCCAGGCGCCCUCGCUGCAGCCCCGCCCCCGUGGGUCUCUGACUCUGUCGCUUUUCUCUAAGUAAAGAUUUCACGUCCACCGG,0.358
AACUGCAGGGAAAAUUAUUUGCAUAACAAUUCCUCUACUAACAAUCAGCUCCUUCCUGGAGACUGCCCAGCUAAAGCAAUAUGCAUUUAAAUACAGUCUUCCAUUUGCAA,0.339
UGUAAGCCGAGAGAAAAGUCAUGUAUAUCAGGCCUAGGUCUUGACACUUAAUUUUCUAUUGUAAAAAGUAAUAAUAUACAGAGUCUAACAGAAGGUCCUGUUGGGUUUGU,0.276

# Single results of other studies
Molecule,target,test,system,setting,scale,quantity,result
"PhoQ, residues 284 288 289 292 302 303 TNASYF","PhoP, residues 12 14 15 18 19 IQFRS (Escherichia coli, UniProt P23836)","Sort-seq, item: YFP reporter",E. coli,"PhoQ-PhoP variant library, together with: 10 µM Mg2+","baseline: high Mg2+ state, higher = stronger signaling",fold induction,8.5

# Excerpt of the above (study 6):
Oligonucleotide,RBNS enrichment (R)
CCUAAUAUGAUAUAUUAUUUUGUAGUAUCUCAGACUUUGUAAAUAAAUGCCAUUAUUUUUAUAUGGAAAUUUUAUAGAAGAGCUAUUUCUGUAUACGUAAUUACUCCUGA,0.628
CCCGAUGCUCUCCGCCGUGUUCGUGUCCCCAGGCGCCCUCGCUGCAGCCCCGCCCCCGUGGGUCUCUGACUCUGUCGCUUUUCUCUAAGUAAAGAUUUCACGUCCACCGG,0.358
CCUGCCCACAGGGCCACCUGUUGGUUUGAGAGCGUGUUCGUGUUCUCUUGCCCUCCCUGCCUAAGAGCUACUGGGAUCACGUUAGCGGGCAUUUAGGCUUUGAUGAGAGG,0.304
AGACCCCACGCCCCUCACUGAGCUCCCAGUUCAGAGGAAAGCCAGACAAUUAAACAGCAGUUACAAUAUGUGUGUGGCUUCUGUCUACUCAAGUUUCCUCUCAGGUCCUC,0.368
CACUAACUGGUAAGGCUUAUUGUACAGUAUAUUGUCAGUAUUCUUCUGGUUCAGCAUACCUUAUAGUUCAUAUAUAACCUGUAUUAAUUGUAUAGAUUGUGCAUUAAAAG,0.317
CUUGUAGGGAAGGGACAAGCUGCAGAGGAACAGUGAUUUAAAGGCCCUUGGAGCUAGUCCCCUCAGCCUCAACUUUGAUCUGGCCUUUAGCCUCAAAGCUGCUGUACCUG,0.303
UUGGGCAUUUUUAAGAGGUCUGAAUUUGUAUUUUUCUUCAUUUUUGAAACUUUACAUUUGUUGACUUUUUUUCAUUCUCAUUUAAAAUAUAUUGUGCUAUGAUAACCAAC,0.578
UUUUCCCCAAACACUUUGCCAGCCACUGGUGGUCCCUGCUUUUCUGAGUACCAUGUUUCCAGGAGGGGCCAUGGGGGUCAGGGUGGUUUUGAGAGAGCAGGGUAAGGAAG,0.535
UUCCCUGCCCCACCCCCUGGCCGCAGCAGGCCAGCACUGCAGAGUUUGGGUGCUGGUGGUGUGGCUGUAGGGGAGGGGAGACCACACCCAAGGUGGGGGCUGUGGCCAUG,0.895
ACAGACUCUUAAACUAACAAUUCAAGCAGGCGCCAAGUGCUAUGACAGAGGUGUGAAUAAAAGCAUCAGGAAAUCGGAUGGAGAACCACCAUUCACCCAAGGGUCAGAGG,0.344
AACUGCAGGGAAAAUUAUUUGCAUAACAAUUCCUCUACUAACAAUCAGCUCCUUCCUGGAGACUGCCCAGCUAAAGCAAUAUGCAUUUAAAUACAGUCUUCCAUUUGCAA,0.339
UGUAAGCCGAGAGAAAAGUCAUGUAUAUCAGGCCUAGGUCUUGACACUUAAUUUUCUAUUGUAAAAAGUAAUAAUAUACAGAGUCUAACAGAAGGUCCUGUUGGGUUUGU,0.276
